Measurements gathered from unrelated publications.
A part holds a random share of what one study measured.

Series 1 — method: universal PBM; form: double-stranded DNA, one strand shown; medium: in vitro; tested at: not given; reading: higher = stronger binding; measurement: E-score
Target: Sal-like protein 4, full length isoform B (SALL4, Homo sapiens, UniProt Q9UJQ4-2, residues 1-616)
Notes: 8-mer, flanks averaged, mean of replicates
CGGCTTGA: -0.218
TTGGACAA: 0.116
GAACGTGC: -0.136
ATTTTGTC: 0.262
ATCACTTC: 0.00938
AGCAACCG: -0.127
ACCGGATA: -0.0909
CAGGAACC: -0.149
CAAATGTC: 0.0453
GAATTTAA: 0.12
CGGGATAC: -0.31
ATAAGGGG: 0.0797
TCCGGAAA: -0.0567
CCCTCATC: -0.0571
AAATTAAT: 0.443
ACGCAGAT: -0.137
GTCGGGCA: -0.212
AGTTCCAC: 0.053
AAGCTCAT: -0.115

Series 2 — method: protein-binding microarray; form: double-stranded DNA, one strand shown; medium: in vitro; tested at: 940 nM top; notes: 60-bp whole probe; added: salmon DNA 0.4 mg/ml; baseline: random background probes; reading: higher = stronger binding; measurement: fitted relative affinity; all sequences stand within: GCCTAGCAC … GTCTTGATTCGCTTGACGCTGCTG
Target: Interferon regulatory factor 5, full length, phosphomimetic (IRF5, Homo sapiens, UniProt Q13568-2, residues 1-514, S451D/S453D/S456D/S462D)
CAAGTTTCTCCTTTCCAAATGTGCTAG: 4.28 z-score
TCAATTGTGGGTCTTGCACTGTGCTAG: -0.52 z-score
TCACCATTTTTTTTCACACTGTGCTAG: 1.67 z-score
GACGGTATCCTTCTCCGGACGTGCTAG: 0.968 z-score
TTAGGACGGGGGACTGGGTTAGTGCTA: 1.85 z-score
TTAGGTTTCCTACTGCATTAGTGCTAG: 0.818 z-score
TTAGGTTTGCTTTTCCTTTAGTGCTAG: 0.132 z-score
GACGTTTTCAGACTGGAGACGTGCTAG: -0.314 z-score
GACGCACTGGGTTTCGGGACGTGCTAG: 2.85 z-score
ATGGAAATGCACCCCACGCTGTGCTAG: -0.276 z-score
TATTTTGGAAACTCACAACAGTGCTAG: -0.00473 z-score
CTAGGTCTCCTTCTCCTTTAGTGCTAG: 0.533 z-score
GACTGTTTCCTTCTCCTGACGTGCTAG: 1.07 z-score
GACGGCCTGGGGACTGGGGACGTGCTA: -0.713 z-score
TTAGATCTCACACTGGATTAGTGCTAG: 0.103 z-score
TCATGTCTGTGTTTCCTACTGTGCTAG: 0.579 z-score

Series 3 — method: protein-binding microarray; form: double-stranded DNA, one strand shown; medium: in vitro; tested at: not given; reading: higher = stronger binding; measurement: E-score
Target: Protein C-ets-1 (ETS1, Homo sapiens, UniProt P14921, residues 1-441, Y397A, full length assumed)
Sequence of UniProt P14921 (whole entry, unmodified, looked up): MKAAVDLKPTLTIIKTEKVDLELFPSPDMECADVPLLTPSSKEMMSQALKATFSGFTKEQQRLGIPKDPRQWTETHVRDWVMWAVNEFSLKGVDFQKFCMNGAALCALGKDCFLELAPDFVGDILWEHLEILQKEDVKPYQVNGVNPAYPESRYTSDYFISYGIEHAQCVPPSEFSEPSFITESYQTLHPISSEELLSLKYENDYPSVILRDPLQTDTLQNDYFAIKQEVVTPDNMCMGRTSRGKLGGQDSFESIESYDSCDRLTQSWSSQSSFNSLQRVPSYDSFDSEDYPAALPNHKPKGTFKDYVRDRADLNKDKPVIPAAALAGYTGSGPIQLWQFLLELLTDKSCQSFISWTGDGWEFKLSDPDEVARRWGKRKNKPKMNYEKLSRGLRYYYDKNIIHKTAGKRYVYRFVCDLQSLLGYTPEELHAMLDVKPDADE
Notes: k-mer, scored over probes, only values ≥0.25
ACATCCGA: 0.372
GCGACAAC: 0.263
TGCACGAA: 0.253
CGCGCAAA: 0.355
CGCAACAA: 0.289
CAATGTCA: 0.27
TTTACAAA: 0.282
AGCATCCG: 0.264
CAGTGTCA: 0.278
GGATGTGA: 0.255
TATCGTCA: 0.263
TACTGTCA: 0.284
GCGGAAAC: 0.26
CCCCACCC: 0.299
CACCGACA: 0.321
TTCGTCAA: 0.26
ACATGACA: 0.357
CACTATAG: 0.26
CGTTTGCC: 0.341
ACATGTAT: 0.277
CAACGGAA: 0.287
ATATATAC: 0.263
TCGACGAA: 0.315
GTGTCACA: 0.328
TTGTACAA: 0.266

Series 4 — method: aptamer microarray, sandwich; form: DNA with 2'F-ANA; medium: in vitro; tested at: 200 nM; added: Cy3 exosite-II aptamer, 400 nM; reading: higher = stronger binding; measurement: mean fluorescence intensity; strand: GGTTGGTGTGGTTGG
Target: Prothrombin, mature alpha-thrombin (F2, Homo sapiens, UniProt P00734)
Notes: whole 15-mer aptamer, many near background
2'F-ANA at 5 8 9 11 13 14 15: 50.3 a.u.
2'F-ANA at 6 7 9 10 11 12 13 14 15: 120 a.u.
2'F-ANA at 2 3 4 6 7 11 14 15: 233 a.u.
2'F-ANA at 1 3 5 6 10 12 14 15: 53 a.u.
2'F-ANA at 1 3 4 6 7 8 9 13 15: 198 a.u.
2'F-ANA at 2 10 14 15: 110 a.u.
2'F-ANA at 3 4 7 8 11 13 14 15: 355 a.u.
2'F-ANA at 1 3 4 6 9 11 13 15: 97.8 a.u.
2'F-ANA at 1 2 6 8 9 10 11: 53.6 a.u.
2'F-ANA at 1 2 4 7 9 10 15: 50.3 a.u.
2'F-ANA at 2 4 5 8 10 11: 68.8 a.u.
2'F-ANA at 2 5 6 8 9 13: 56.9 a.u.
2'F-ANA at 2 5 6 8 9 11 13: 56.4 a.u.
2'F-ANA at 2 3 4 5 10 11 13: 49.8 a.u.
2'F-ANA at 1 2 3 4 7 8 9 10 11 13 15: 64.2 a.u.
2'F-ANA at 4 5 10 11 12 14: 46.4 a.u.

Series 5 — method: RNA Bind-n-Seq; form: RNA; medium: in vitro; tested at: 365 nM; baseline: no-protein control; reading: higher = stronger binding; measurement: RBNS enrichment (R)
Target: RNA binding protein fox-1 homolog 2, RRM domain, GST-SBP tag (RBFOX2, Homo sapiens, UniProt O43251-10, residues 100-194)
Notes: natural RNA segment, single round, ends assumed
All sequences stand within: GGGAGUUCUACAGUCCGACGAUC … UGGAAUUCUCGGGUGCCAA
Residues (chain): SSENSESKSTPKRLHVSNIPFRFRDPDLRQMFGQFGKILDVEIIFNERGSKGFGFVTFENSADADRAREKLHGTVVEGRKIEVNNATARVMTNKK
UAGUGAAGUUCUUUUACUGUAAUUGGUGACAAUGUCACAUAAUGAAUGCUAUUGAAAAGGUUAACAGAUACAGCUCGGAGUUGUGAGCACUCUACUGCAAGACUUAAAUA: 16
AGAGAAUUACUGAGUUCCUCUCAGGACCCCUGAAGAAGCUAUAAGUCAGUACCAGUAGCUUCAGGGUCUGUCGUAGGAGCGAGGACAACUGUAAACACAGGGUCCGCUGA: 0.268
GAACAGAACCCAGCCCAUAAGAGACAUUCUCAGAUGAAACUCUGUUUUCUUGCCCCAGUCAGGCUCAAGCCCUGUGGUUGUAGGAAUAAAGCCUGUGAUCUCAAGAAGUG: 0.287
AAUUGUGGAUCAUUUACCUUGAGGCUGCAGAGUGGGUUCCAGGACUCUUACUUCACUGUGGAGGGACUUCGAGCAUCAGGUGGCUCUCUCAUGUUCCUGCCCCCUUUACU: 0.401
CAAAGGGAGUGUUGAAACUCAAGUCCCGCCCUGGCUCUUUAGAAUGGACCACUGAGAGCCACAGGACCGUUUUGGGGCUGACCUGUCUUAUUACGUAUGUACUUCUAGGU: 0.406
ACAUUUUAUUAUGUAGCAAGAUACAUGGUGAUUUUUUUUUUUUUCAUUUAGCCUGAUUUUCCAACGUCAUUGGUGACAGGCCAAGGCCACUAUGUUAUUUCCUUUGUUCU: 0.576
AGCUUUCACCAAGCUCUGGCCUCCAGGGAGCUGUGUCUUUCUCUGUCCCAUUAAGAUUUGGGCACAGAUAAGACAUCUUCCACUUUCCAUCCUUCCUACAGUUAGAGCCC: 0.338
UUUGCACCAGAAGCAUAUCAUUAUUUAUUGCUGUGAUUACUAUCUGUCAUCCACCUUGUACUAGAAAGUUUUAGCACUGAAUUAUUCCUUCUUCAUUGUUGUUUGUAUUU: 0.655

For quick reference, copied from above (series 5):
ACAUUUUAUUAUGUAGCAAGAUACAUGGUGAUUUUUUUUUUUUUCAUUUAGCCUGAUUUUCCAACGUCAUUGGUGACAGGCCAAGGCCACUAUGUUAUUUCCUUUGUUCU: 0.576
AGAGAAUUACUGAGUUCCUCUCAGGACCCCUGAAGAAGCUAUAAGUCAGUACCAGUAGCUUCAGGGUCUGUCGUAGGAGCGAGGACAACUGUAAACACAGGGUCCGCUGA: 0.268
AAUUGUGGAUCAUUUACCUUGAGGCUGCAGAGUGGGUUCCAGGACUCUUACUUCACUGUGGAGGGACUUCGAGCAUCAGGUGGCUCUCUCAUGUUCCUGCCCCCUUUACU: 0.401
UAGUGAAGUUCUUUUACUGUAAUUGGUGACAAUGUCACAUAAUGAAUGCUAUUGAAAAGGUUAACAGAUACAGCUCGGAGUUGUGAGCACUCUACUGCAAGACUUAAAUA: 16
CAAAGGGAGUGUUGAAACUCAAGUCCCGCCCUGGCUCUUUAGAAUGGACCACUGAGAGCCACAGGACCGUUUUGGGGCUGACCUGUCUUAUUACGUAUGUACUUCUAGGU: 0.406
GAACAGAACCCAGCCCAUAAGAGACAUUCUCAGAUGAAACUCUGUUUUCUUGCCCCAGUCAGGCUCAAGCCCUGUGGUUGUAGGAAUAAAGCCUGUGAUCUCAAGAAGUG: 0.287
AGCUUUCACCAAGCUCUGGCCUCCAGGGAGCUGUGUCUUUCUCUGUCCCAUUAAGAUUUGGGCACAGAUAAGACAUCUUCCACUUUCCAUCCUUCCUACAGUUAGAGCCC: 0.338
UUUGCACCAGAAGCAUAUCAUUAUUUAUUGCUGUGAUUACUAUCUGUCAUCCACCUUGUACUAGAAAGUUUUAGCACUGAAUUAUUCCUUCUUCAUUGUUGUUUGUAUUU: 0.655
